Measured values collected from several papers.
Lines come from different studies, so protocols differ. ± gives the spread as reported.
Action: inhibitor
Slc6a3: Sodium-dependent dopamine transporter (Slc6a3, Rattus norvegicus, UniProt P23977)
UniProt P23977, sequence (whole entry, looked up): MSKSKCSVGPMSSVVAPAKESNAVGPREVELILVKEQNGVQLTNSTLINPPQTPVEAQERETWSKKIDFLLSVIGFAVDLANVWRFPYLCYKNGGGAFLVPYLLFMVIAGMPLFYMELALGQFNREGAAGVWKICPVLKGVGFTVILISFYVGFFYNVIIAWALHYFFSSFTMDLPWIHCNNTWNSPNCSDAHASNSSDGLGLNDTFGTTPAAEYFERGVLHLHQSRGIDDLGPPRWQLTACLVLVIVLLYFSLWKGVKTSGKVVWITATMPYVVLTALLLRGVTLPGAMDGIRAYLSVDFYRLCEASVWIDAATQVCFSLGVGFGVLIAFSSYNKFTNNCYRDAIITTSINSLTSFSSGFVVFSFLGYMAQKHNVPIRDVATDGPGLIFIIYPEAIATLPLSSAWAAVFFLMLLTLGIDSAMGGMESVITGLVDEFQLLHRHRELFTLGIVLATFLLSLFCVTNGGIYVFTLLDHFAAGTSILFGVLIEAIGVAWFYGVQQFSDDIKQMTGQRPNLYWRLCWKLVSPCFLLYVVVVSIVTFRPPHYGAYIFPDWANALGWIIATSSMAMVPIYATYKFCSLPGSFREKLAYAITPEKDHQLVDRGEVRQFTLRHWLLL
UniProt P31645, sequence (whole entry, looked up): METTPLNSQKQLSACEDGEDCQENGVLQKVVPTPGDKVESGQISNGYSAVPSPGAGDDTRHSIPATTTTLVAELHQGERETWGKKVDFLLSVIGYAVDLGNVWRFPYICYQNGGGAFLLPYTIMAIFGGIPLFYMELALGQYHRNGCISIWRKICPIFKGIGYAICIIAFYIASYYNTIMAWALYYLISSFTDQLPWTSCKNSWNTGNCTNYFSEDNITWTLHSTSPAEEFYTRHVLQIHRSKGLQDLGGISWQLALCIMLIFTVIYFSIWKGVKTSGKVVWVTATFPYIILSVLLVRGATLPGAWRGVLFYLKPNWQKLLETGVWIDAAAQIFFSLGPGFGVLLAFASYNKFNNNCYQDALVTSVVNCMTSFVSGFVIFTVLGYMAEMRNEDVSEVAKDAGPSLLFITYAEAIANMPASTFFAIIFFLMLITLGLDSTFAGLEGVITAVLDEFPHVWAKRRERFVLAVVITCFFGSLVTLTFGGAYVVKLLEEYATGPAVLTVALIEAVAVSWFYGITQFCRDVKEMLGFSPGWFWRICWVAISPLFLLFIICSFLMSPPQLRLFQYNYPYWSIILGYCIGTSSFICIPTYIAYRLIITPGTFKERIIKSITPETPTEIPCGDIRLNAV
UniProt P9WMW7, sequence (whole entry, looked up): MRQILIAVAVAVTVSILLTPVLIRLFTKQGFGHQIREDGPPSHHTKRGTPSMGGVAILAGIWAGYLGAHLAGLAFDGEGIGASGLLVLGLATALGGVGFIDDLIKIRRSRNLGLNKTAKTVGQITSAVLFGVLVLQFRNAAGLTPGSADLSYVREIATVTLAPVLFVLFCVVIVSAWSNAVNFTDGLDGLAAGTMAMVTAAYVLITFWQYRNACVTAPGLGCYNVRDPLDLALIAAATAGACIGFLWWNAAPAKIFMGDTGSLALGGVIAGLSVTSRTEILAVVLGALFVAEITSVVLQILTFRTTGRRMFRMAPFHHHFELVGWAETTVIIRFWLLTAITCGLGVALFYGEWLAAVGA
UniProt P08575, sequence (whole entry, looked up): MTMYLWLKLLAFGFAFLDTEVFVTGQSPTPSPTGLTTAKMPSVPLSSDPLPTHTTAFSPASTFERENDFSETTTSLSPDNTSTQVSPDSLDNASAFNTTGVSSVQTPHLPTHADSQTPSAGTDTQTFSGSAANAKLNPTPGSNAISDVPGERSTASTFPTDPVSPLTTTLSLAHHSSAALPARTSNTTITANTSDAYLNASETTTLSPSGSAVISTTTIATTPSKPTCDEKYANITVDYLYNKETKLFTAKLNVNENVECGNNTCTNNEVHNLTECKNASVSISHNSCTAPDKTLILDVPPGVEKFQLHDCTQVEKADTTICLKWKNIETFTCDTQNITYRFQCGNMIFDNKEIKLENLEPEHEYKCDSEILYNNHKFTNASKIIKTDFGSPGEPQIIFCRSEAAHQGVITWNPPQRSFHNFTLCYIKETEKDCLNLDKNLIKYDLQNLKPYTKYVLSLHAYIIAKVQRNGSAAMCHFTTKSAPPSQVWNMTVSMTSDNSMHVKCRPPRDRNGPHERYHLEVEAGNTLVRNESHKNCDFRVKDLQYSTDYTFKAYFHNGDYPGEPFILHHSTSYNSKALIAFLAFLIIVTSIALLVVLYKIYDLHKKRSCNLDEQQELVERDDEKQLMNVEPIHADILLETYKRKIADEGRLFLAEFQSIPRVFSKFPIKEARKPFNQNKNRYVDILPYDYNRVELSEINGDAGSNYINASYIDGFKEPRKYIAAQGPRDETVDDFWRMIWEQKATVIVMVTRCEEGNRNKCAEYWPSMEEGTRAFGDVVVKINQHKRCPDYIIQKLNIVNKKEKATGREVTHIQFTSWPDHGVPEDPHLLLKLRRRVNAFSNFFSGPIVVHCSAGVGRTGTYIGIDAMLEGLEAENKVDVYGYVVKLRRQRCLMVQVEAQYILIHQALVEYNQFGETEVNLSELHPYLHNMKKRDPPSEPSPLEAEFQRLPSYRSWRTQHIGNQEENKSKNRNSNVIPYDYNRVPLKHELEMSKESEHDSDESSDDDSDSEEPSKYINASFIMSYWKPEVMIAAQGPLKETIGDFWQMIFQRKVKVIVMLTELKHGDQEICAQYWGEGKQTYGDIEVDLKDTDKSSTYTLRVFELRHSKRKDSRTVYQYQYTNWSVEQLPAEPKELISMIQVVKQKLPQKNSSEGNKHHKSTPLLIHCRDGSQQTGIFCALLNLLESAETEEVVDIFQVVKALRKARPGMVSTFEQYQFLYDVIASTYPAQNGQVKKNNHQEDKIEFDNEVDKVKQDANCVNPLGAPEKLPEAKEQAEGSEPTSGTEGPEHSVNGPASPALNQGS
UniProt P28236, sequence (whole entry, looked up): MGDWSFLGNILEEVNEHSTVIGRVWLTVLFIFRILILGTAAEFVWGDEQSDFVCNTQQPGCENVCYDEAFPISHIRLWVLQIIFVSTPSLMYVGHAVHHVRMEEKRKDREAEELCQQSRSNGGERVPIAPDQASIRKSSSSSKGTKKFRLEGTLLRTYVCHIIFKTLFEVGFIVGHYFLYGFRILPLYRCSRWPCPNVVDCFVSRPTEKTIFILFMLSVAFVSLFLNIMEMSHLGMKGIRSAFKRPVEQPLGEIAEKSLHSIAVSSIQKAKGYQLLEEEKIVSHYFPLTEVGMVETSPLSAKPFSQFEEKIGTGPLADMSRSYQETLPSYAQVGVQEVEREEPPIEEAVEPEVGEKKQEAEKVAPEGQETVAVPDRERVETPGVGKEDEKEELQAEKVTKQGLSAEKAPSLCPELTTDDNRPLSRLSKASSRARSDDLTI
UniProt P01116, sequence (whole entry, looked up): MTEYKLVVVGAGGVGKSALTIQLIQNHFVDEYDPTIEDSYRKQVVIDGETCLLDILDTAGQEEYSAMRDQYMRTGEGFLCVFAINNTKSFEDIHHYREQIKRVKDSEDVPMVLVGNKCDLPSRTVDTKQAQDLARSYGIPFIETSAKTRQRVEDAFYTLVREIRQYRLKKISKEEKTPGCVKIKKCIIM
UniProt P05177, sequence (whole entry, looked up): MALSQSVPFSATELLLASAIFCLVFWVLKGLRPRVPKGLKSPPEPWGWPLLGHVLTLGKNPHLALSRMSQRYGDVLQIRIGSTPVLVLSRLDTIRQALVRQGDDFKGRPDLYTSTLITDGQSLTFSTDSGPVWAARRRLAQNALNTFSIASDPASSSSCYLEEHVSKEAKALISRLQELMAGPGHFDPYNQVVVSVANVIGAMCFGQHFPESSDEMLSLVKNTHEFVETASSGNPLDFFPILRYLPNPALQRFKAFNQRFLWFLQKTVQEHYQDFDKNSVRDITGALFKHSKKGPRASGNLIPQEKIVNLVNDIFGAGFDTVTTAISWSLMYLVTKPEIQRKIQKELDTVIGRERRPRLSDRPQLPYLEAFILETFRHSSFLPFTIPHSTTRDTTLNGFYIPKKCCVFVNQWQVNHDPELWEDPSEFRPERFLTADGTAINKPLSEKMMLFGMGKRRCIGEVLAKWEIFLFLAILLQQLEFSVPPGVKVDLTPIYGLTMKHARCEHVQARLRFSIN
UniProt P22309, sequence (whole entry, looked up): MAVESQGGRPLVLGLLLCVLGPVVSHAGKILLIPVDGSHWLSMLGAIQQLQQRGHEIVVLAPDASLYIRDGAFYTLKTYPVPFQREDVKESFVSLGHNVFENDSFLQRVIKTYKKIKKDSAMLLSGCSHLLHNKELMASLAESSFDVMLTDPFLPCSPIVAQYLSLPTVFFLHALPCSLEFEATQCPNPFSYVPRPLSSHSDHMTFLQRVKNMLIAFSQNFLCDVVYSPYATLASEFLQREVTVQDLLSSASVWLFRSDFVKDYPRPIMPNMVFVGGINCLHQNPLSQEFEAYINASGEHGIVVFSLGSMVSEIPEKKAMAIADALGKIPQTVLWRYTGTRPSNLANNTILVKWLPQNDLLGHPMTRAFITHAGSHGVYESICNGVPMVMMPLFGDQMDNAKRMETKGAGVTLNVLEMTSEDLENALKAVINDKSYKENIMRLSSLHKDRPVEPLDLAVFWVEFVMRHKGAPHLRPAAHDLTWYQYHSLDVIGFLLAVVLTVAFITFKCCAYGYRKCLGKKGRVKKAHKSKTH

Structure (SMILES) = CCCCCc1cc(O)c2c(c1)OC(C)(C)C1CCC(C)=CC21 (single isomer, unassigned; (-)); target = Cytochrome P450 1A2 (CYP1A2, Homo sapiens, UniProt P05177); test system = HEK cell microsomes; conditions = 30 min preincubation without NADPH; IC50 = 2.7 ± 1 µM
Structure (SMILES) = CCC1CN2CCC3(O)C(=Nc4cccc(OC)c43)C2CC1C(=COC)C(=O)OC (stereo not drawn); target = UDP-glucuronosyltransferase 1A1 (UGT1A1, Homo sapiens, UniProt P22309); assay = enzyme activity; conditions = 2 h, pH 7.4; IC50 = 7.13 µM
Structure (SMILES) = CCC[N+](C)(C)CCc1c[nH]c2cccc(O)c12; target = Slc6a3; assay = transporter uptake, radiometric; IC50 = > 10 µM
Structure (SMILES) = Cc1[nH]c2cc(Cl)cc(Cl)c2c1CCN; target = GTPase KRas (KRAS, Homo sapiens, UniProt P01116); assay = enzyme activity; IC50 = 1560 µM
Structure (SMILES) = CCC[C@@H](C(=O)c1ccccc1)N1CCCC1; target = Sodium-dependent serotonin transporter (SLC6A4, Homo sapiens, UniProt P31645); assay = transporter uptake, radiometric; IC50 = 207 µM
Structure (SMILES) = Cc1ccccc1N1C(=O)/C(=C/c2ccc(OCc3cccc(C(=O)O)c3)cc2)C(=O)NC1=S; target = Receptor-type tyrosine-protein phosphatase C (PTPRC, Homo sapiens, UniProt P08575); assay = enzyme activity; IC50 = 30.1 µM
Structure (SMILES) = OC(c1ccccc1)(c1ccccc1)[C@H]1CCCN1; target = Gap junction alpha-8 protein (Gja8, Mus musculus, UniProt P28236); assay = gap junction current, dual whole-cell voltage clamp; test system = transfected mouse N2a cell pairs; IC50 = 10 µM
Structure (SMILES) = CO[C@H]1[C@@H](O)[C@H](n2ccc(=O)[nH]c2=O)O[C@@H]1[C@@H](O[C@H]1OC(C(=O)N[C@H]2N=C(c3ccccc3)c3ccccc3NC2=O)=C[C@H](O)[C@@H]1O)C(N)=O; target = Phospho-N-acetylmuramoyl-pentapeptide-transferase (Mycobacterium tuberculosis, UniProt P9WMW7); assay = enzyme activity, HPLC; IC50 = 0.095 µM
Structure (SMILES) = CC(=O)Oc1cccc2[nH]cc(CC[N+](C)(C)C)c12; target = Slc6a3; assay = transporter uptake, radiometric; IC50 = > 10 µM

Some of these lines once more:
Structure (SMILES) = CCC1CN2CCC3(O)C(=Nc4cccc(OC)c43)C2CC1C(=COC)C(=O)OC (stereo not drawn); target = UDP-glucuronosyltransferase 1A1 (UGT1A1, Homo sapiens, UniProt P22309); assay = enzyme activity; conditions = 2 h, pH 7.4; IC50 = 7.13 µM
